Measurements of several laboratories.
Each numbered part is a random draw from the data of one study; scales do not carry over between parts.

Study 1
Observed: peptide binding
Molecule type: peptide
Sample: yeast competitive growth
With: B2-Cln2 chimera
Direction: direction not given
Sequence | enrichment score
CFRCLLFSFSGRSGVE | -1.55
RSLKLDGLLEEN | -0.157
IQKKLRFEDTLEFVGF | -0.121
EPKTLFLGAGDFQF | 1.15
LAKRALKYTD | -0.252
SDSTVTKLDFDLEP | 1.39
VLLKRLQDVVSERANH | -0.951
RVSGLLSWTLSRVLWL | -0.946
ALLRRLQDVANDRGSH | -0.897
LKGRRLVFDN | 0.203
QDYERRLLRQIVIQNE | -0.226
TSSAQRRLEIPSGGAD | -0.65

Study 2
Target: UBE2J1 UBC core domain (UniProt Q9Y385)
Method: yeast two-hybrid
Sample: yeast
Notes: mostly zero background
Relative to: not given
Direction: higher = stronger interaction
B1: TRIM5 RING domain (UniProt Q9C035); chain LREVKLSPEGQKVDHCARHGEKLLLFCQEDGKVICWLCERSQEHRGHHTFLTEEVAREYQVKL
B2: TRIM5 RING domain (UniProt Q9C035); chain ILVNVKEEVTCPICLELLTQPLSLDCGHSFCQACLTANHKKSMLDKGESSCPVCRISYQPENIRP
B3: TRAF5 RING domain (UniProt O00463); chain FVERLEERYKCAFCHSVLHNPHQTGCGHRFCQHCILSLRELNTVPICPVDKEVIKSQEVFK
B4: TRIM24 RING domain (UniProt O15164); chain EAARLNLLDTCAVCHQNIQSRAPKLLPCLHSFCQRCLPAPQRYLMLPAPMLGSAETPPPVPAPGSPVSGSSPFATQVGVIRCPVCSQECAERHII
B5: SH3RF2 RING domain (UniProt Q8TEC5); chain DDLTLLDLLECPVCFEKLDVTAKVLPCQHTFCKPCLQRVFKAHKELRCPECRTPVFSNIEAL
B6: TRIM43 RING domain (UniProt Q96BQ3); chain FSHAFQKELTCVICLNYLVDPVTICCGHSFCRPCLCLSWEEAQSPANCPACREPSPKMDFKT
B7: TRIML1 RING domain (UniProt Q8N9V2); chain LMENLREELTCFICLDYFSSPVTTECGHSFCLVCLLRSWEEHNTPLSCPECWRTLEGPHFQS
B8: DTX4 RING domain (UniProt Q9Y2E6); chain QKVRHPPDEDCTICMERLTAPSGYKGPQPTVKPDLVGKLSRCGHVYHIYCLVAMYNNGNKDGSLQCPTCKTIYGVKTGTQ
B9: VPS41 RING domain (UniProt P49754); chain KGVLVDEENICESCLSPILPSDAAKPFSVVVFHCRHMFHKECLPMPSMNSAAQFCNICSAKNRGPGSAI
Residues (chain): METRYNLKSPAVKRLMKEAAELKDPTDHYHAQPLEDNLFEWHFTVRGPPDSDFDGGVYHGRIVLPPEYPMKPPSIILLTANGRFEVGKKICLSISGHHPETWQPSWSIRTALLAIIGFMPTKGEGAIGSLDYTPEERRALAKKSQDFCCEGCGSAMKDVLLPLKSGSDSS
Sequence | lacZ reporter activity
B1 (TRIM5 RING domain) | 0
B2 (TRIM5 RING domain) | 0
FQGDVDEDLICPICSGVLEEPVQAPHCEHAFCNACITQWFSQQQTCPVDRSVVTVAHLRP (RNF41 RING domain (UniProt Q9H4P4)) | 0
VEPSEENSKDCVVCQNGTVNWVLLPCRHTCLCDGCVKYFQQCPMCRQFVQESFALC (CGRRF1 RING domain (UniProt Q99675)) | 0
B3 (TRAF5 RING domain) | 0
B4 (TRIM24 RING domain) | 0
MPIRALCTICSDFFDHSRDVAAIHCGHTFHLQCLIQWFETAPSRTCPQCRIQVGKRTIIN (TRAIP RING domain (UniProt Q9BWF2)) | 0
B5 (SH3RF2 RING domain) | 0
B6 (TRIM43 RING domain) | 0
B7 (TRIML1 RING domain) | 0
B8 (DTX4 RING domain) | 0
B9 (VPS41 RING domain) | 0
DHGAVGQEMCCPICCSEYVKGEVATELPCHHYFHKPCVSIWLQKSGTCPVCRCMFPPPL (PJA1 RING domain (UniProt Q8NG27)) | 0

Study 3
Target: RNA binding protein fox-1 homolog 2, RRM domain, GST-SBP tag (RBFOX2, Homo sapiens, UniProt O43251-10, residues 100-194)
Method: RNA Bind-n-Seq
Molecule type: RNA
Sample: in vitro
Tested at: 365 nM
Notes: natural RNA segment, single round, ends assumed
Relative to: no-protein control
Direction: higher = stronger binding
Construct (chain): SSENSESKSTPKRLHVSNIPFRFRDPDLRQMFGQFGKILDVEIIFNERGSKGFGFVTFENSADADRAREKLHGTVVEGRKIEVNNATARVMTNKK
Strand | RBNS enrichment (R)
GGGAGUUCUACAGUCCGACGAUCAUUAUAGAAGGAAAUUAUACUUUAAGAAAAUGUUCACAAAAAAAAAAAAAAAAAAAGGACUAUUACAGAUCCCAAUACUUGGAUUUGGUGACCUUGUCUUUCUUUCUUUUUGGAAUUCUCGGGUGCCAA | 0.889
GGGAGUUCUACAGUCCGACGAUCCGCUGUGCUCCAGGGAGAGGAGCCAAGAAGCAAGCGGGCUGCUGGGAGUCCCUGCACUGCCAUCUGGCCGGGACGGAGGCGCCUGCCCGGUCUCCAGGCUCCUCUGAGCUUGGAAUUCUCGGGUGCCAA | 1.04
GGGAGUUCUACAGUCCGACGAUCACUAGCUGUUAUGUUAUGAUUUUAUUCUUUGUGAGUUAAUUAGAAUAAAGUCAUUUUCUUCCAAGGUUGGUUCAUUUAGUCUAUAGUCUCUGGUUAUGAAAUUAGCAUCCUGGAAUUCUCGGGUGCCAA | 1.21
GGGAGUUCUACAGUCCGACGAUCUGUUGGCCAGAGGUAUCUGGGAGAACCUACCCUUUCUAGGAGUGGCUCCUGCCUGACUCUUCCUUCGUCGGAGAAAGGAAAAAACAGUGUUAAGUGACCUAGAAACUUGAUGGAAUUCUCGGGUGCCAA | 0.387
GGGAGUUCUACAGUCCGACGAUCUUUUACCUGGCCUGUUCUGAUAAAGAGGCAUUUAUUAGCCAAGCAACCAUAAGACUCUAGUCAAAAGCACUCGUGCAGAUAUGCUGCAUAUGAGUAAGAAAUUGCAAUUUUGGAAUUCUCGGGUGCCAA | 0.496
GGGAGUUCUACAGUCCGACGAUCUGCAACUGAGAGGGUCUUCCUGGGCCCGCCUUCCCCGACAGCCCUAGUGUUACACUGGUUCUGGAGUGUCUCUGCGGUACAAAGAUGCACUUUUCUUCAUGGGGCAAAGUUGGAAUUCUCGGGUGCCAA | 0.254
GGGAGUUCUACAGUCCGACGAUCCACUGGGGCCAGCAGGAGUUGGGAACCCCUCUGAGGUGAUUUGCCUGAGCAUGGGGUUCCGGCUGUCACUCAGGCUCAGAGACCCAGCUGGGCUGGGCUUUGCCUUUCAGUGGAAUUCUCGGGUGCCAA | 0.813
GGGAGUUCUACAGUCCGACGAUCCACACCCCUAUUUCAUGUCUGAAAUAACCCUGUUUCAUACCAGUUGCAAAGCUUGUGGGGAGCGGUCCCACAAAGCACUUUCUUAAACCUUGAGAAUCUCCAAGAGAAAAUGGAAUUCUCGGGUGCCAA | 0.378
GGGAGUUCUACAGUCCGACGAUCAACUUGGUGAAGGAUGGUGCUCAUCCUUAUGAUGAUGGAUAAGGGGGAGGGGUUUGGGUCCUCACACUGAGAGCUUAUACCCAGUUGGAGCCCAAGAAGAGCUAGACUGAUGGAAUUCUCGGGUGCCAA | 1
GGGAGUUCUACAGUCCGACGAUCCCAUCUGUACUUGGUCCAACUGCAACUCAUCAUCGGUGACUGGUUAUCACACCAUCGCUGGCCCCUUUGGGCCCUGCAUGUAGUGUGGGAGGCUCCUGUUAGCUCCUCACUGGAAUUCUCGGGUGCCAA | 2.44
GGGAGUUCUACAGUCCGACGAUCCGUGGCAGACAGCAGGUGCCUGGCGGUGACCCACGGGGCUCCUGGCUUGCAGCUGGUGAUGGUCAAGAACUGACUACAAAACAGGAAUGGAUAGACUCUAUUUCCUUCCAUGGAAUUCUCGGGUGCCAA | 0.271
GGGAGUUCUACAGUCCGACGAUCUAGGAACAAUGCAUUCUAAUGGUACAACUGCCAAAACCCACCCUUGGUUUCUGAUGAUUUAUAAGUAACUACAAAAGAAAGAGACCUGUUCUUGAACAGAUACUAUGUCUUGGAAUUCUCGGGUGCCAA | 0.442

Study 4
Target: Ras GTPase-activating protein-binding protein 1, full length (G3BP1, Homo sapiens, UniProt Q13283)
Chain of UniProt Q13283 (whole entry, looked up): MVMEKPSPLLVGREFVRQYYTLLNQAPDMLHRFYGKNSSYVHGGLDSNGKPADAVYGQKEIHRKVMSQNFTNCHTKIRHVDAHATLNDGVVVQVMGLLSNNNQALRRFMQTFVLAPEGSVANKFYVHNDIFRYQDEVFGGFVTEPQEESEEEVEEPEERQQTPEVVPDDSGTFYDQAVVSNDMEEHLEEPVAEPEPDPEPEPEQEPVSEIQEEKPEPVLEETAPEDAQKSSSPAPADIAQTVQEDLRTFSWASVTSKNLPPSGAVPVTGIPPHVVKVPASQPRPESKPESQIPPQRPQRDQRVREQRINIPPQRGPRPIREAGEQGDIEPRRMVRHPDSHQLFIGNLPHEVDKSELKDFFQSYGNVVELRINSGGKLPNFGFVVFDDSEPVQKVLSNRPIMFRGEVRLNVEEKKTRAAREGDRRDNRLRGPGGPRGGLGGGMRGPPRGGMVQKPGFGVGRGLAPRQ
Method: RNA Bind-n-Seq
Molecule type: RNA
Sample: in vitro
Tested at: 200 nM
Notes: whole 134-nt RNA, ends assumed
With: 150 mM LiCl
Relative to: input library
Direction: higher = stronger binding
All molecules: 7-deaza-guanosine replaces G
Strand | log2 enrichment
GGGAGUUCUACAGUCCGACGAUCAGUUACUCAGUUCAUUUUGGAUAACUACAUUGAAAGAGGAAAAGGAUCUGCUUGCAGAAUAGUUUGUACUCAGCCAAGAAGAAUUAGUGCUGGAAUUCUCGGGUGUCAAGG | -3.27
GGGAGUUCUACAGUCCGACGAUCAGUCCUGUGCUACACAUCGUAUGUACCGAAUCGGGGAGGGGAGGGGAAAAAAAGGGGAAAGUAUUAUGUUACGCCGUUCGGAUCUGCACUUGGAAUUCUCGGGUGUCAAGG | 0.738
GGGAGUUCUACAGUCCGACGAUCUUAUCUGUGGACUUCACCCAAAAGGAGUGGCAGCUACUGGAUCCCUCUCAGAAGAAUUUAUACAAGGAUGUGAUGUUGGAGAACUAUAGCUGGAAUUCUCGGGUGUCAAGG | -1.63
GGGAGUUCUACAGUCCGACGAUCGCAGGAAGUAAAAACAAAUGGAAAUGCUUCGGAUAGUGGCAUGGGUGGGGGUUGCUAAGGAAAGGGUGGGAUGGGAGUGGGUAAAGAGUUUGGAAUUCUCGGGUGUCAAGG | -0.14
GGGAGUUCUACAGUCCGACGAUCUGGCCCUGGUGGCAUGCGGGGAGGAAGAGGUGGCCUCAUGAAUCGUGGUGGUCCCGGUGGAAUGUUCAGAGGUGGCCGUGGUGGAGACAGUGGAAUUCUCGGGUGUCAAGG | 0.0307
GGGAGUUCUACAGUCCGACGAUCUAACUUUAGAGGAGGAUCUGAUGAAUAUGGCAGUGGACGUGGAUUUGGGGAUGGCUAUAAUGGGUAUGGAGGAGGACCUGGAGGUGGCAAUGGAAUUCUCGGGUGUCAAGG | -0.352
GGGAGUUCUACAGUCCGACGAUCACCAUGCAGGUGGGCAUCUUUGGGAAGUGGGGCAAGGGGGGGAUAGGGAGGGGGGUAACACUUUGGGAACGGGUGGUCCCAGGUCGUUUCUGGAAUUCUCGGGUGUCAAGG | 0.168
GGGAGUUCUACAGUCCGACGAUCUGGCCCUGGUGGCAUGCGGGGAGGAAGAGGUGGCCUCAUGGAUCGUAGUGGUCCCGGUGGAAUGUUCAGAGGUGGCCGUGGUGGAGACAGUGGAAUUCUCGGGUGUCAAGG | 0.675
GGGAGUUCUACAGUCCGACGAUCGCAGGAAGUAAAAACAAAUGGAAAUGCUUCGGAUAGUGGCAGGGGUCGGGGUUGCUAAGGAAAGGGUGGGAUGGGAGUGGGUAAAGAGUUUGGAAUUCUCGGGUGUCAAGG | -0.0147
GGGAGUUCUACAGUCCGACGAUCUCAAGUCCUGUGCUACACAUCGUAUGUACCGAAUCGGGAAGGGGAAGGGGAAGGAAAGUAUUAUGUUACGCCGUUCGGAUCUGCACUUCCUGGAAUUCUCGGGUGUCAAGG | -0.739
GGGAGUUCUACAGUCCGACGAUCUGCAGCUGCUGGCCGCCUCCUAUGACCUGCACCGCUACUUCUACACGGGUGCCGAGAUCCUGGGCCUCAUCGACGAGAAGCACCGCGAGCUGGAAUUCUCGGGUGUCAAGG | -0.0641

Study 5
Target: Histone acetyltransferase KAT6A, both winged helices, GST fusion (KAT6A, Homo sapiens, UniProt Q92794, residues 1-181)
Method: protein binding microarray
Molecule type: double-stranded DNA, one strand shown
Sample: in vitro
Tested at: not given
Notes: 8-mer, flanks averaged, mean of 2 arrays, mostly near background
Relative to: not given
Direction: higher = stronger binding
Construct (chain): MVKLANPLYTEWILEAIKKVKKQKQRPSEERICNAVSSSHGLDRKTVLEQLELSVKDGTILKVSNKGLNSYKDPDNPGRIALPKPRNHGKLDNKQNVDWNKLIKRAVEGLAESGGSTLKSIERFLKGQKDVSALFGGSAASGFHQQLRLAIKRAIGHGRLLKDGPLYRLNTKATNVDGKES
Strand | E-score
TCCAGCCA | -0.195
ATGTCCGC | 0.293
AGGACCGA | 0.0101
ATCTACAT | -0.157
AGCACATA | -0.132
ACAAAAAA | 0.00403
GCGGGACC | 0.267
AGCTGTAG | -0.109
ATTCGAGC | -0.0912
GATCTTGC | 0.000505
GCGGGGGA | 0.0689
ACGGACGA | 0.227
TATCCTGA | -0.152
TCAGACAA | -0.0871
CCATTATC | -0.0201
AGCCTGTG | -0.222
ACTGCGTC | 0.0757
AGTGTTTG | -0.146
GACGCTAC | 0.145
AATGCTGG | -0.165
CCGGCCAA | 0.101
ACGAGACA | -0.131
AAGCCCCT | -0.13
GCAGGACC | -0.0532
CGCGCTCC | 0.321
